{"data": "Measured values pooled from the literature", "note": "A part holds a random share of what one study measured."}
{"data": "Sample 1", "target": "PABPC1L2, full length, GST fusion (mouse, UniProt A0ABA7IW68)", "technique": "RNAcompete", "form": "RNA", "sample": "in vitro", "tested at": "20 nM", "setting": "7-mer, probes averaged, single round", "baseline": "mean of 7-mers", "reading": "higher = stronger binding", "Target sequence (chain)": "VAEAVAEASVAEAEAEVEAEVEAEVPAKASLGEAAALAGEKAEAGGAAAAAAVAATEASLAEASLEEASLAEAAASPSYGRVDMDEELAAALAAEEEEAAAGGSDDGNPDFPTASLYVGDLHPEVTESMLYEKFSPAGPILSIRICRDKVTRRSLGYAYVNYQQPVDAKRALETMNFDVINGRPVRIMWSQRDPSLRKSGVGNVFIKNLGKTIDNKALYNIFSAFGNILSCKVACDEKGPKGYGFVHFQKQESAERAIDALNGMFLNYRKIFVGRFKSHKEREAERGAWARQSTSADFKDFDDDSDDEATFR"}
{"Strand": "GGUAGAA", "7-mer Z-score": 0.389}
{"Strand": "UUUGGGU", "7-mer Z-score": -0.389}
{"Strand": "UAUGCUU", "7-mer Z-score": -0.335}
{"data": "Sample 2", "target": "Protein max, full length (MAX, Homo sapiens, UniProt P61244-2, residues 1-151)", "technique": "protein-binding microarray", "form": "double-stranded DNA, one strand shown", "sample": "in vitro", "tested at": "not given", "setting": "k-mer, scored over probes, only values ≥0.25", "reading": "higher = stronger binding"}
{"Strand": "GCGTGTGA", "E-score": 0.365}
{"Strand": "CCCCCTGC", "E-score": 0.291}
{"Strand": "AAAATGTG", "E-score": 0.339}
{"Strand": "CGTGACGA", "E-score": 0.309}
{"data": "Sample 3", "target": "Fragile X messenger ribonucleoprotein 1, C-terminal low-complexity region (Fmr1, Mus musculus, UniProt P35922)", "technique": "RNA Bind-n-Seq", "form": "RNA", "sample": "in vitro", "tested at": "200 nM", "setting": "whole 134-nt RNA, ends assumed", "together with": "150 mM KCl", "baseline": "input library", "reading": "higher = stronger binding"}
{"Strand": "GGGAGUUCUACAGUCCGACGAUCAAGUCCUGUGCUACACAUCGUAUGUACCGAAUCGGGUUUUUGGGUUUUUGGGUGGGAAAGUAUUAUGUUACGCCGUUCGGAUCUGCACUUUGGAAUUCUCGGGUGUCAAGG", "log2 enrichment": 0.819}
{"Strand": "GGGAGUUCUACAGUCCGACGAUCGGUGAUGGUCAACAAGCCUCAACUGCCUCUGCUACAACUGCCAAGUUCCCCGCGUCCCACCCUCCUCUAGGUGCUCCAAGGGACCACCGGUGGAAUUCUCGGGUGUCAAGG", "log2 enrichment": -0.0977}
{"Strand": "GGGAGUUCUACAGUCCGACGAUCUCCUGUGCUACACAUCGUAUGUACCGAAUCGGGGUUUUUGGGGAAAAAGGGGUUUGGGGAAAGUAUUAUGUUACGCCGUUCGGAUCUGCAUGGAAUUCUCGGGUGUCAAGG", "log2 enrichment": 0.792}
{"data": "Further values, each from its own experiment"}
{"Molecule": "PhoQ, residues 284 288 289 292 302 303 SLANIV", "target": "PhoP, residues 12 14 15 18 19 TTLRV (Escherichia coli, UniProt P23836)", "assay": "Sort-seq, refers to: YFP reporter", "system": "E. coli", "conditions": "PhoQ-PhoP variant library, together with: 10 µM Mg2+", "scale": "baseline: high Mg2+ state, higher = stronger signaling", "endpoint": "fold induction", "value": 1.84}
{"note": "For quick reference, copied from above (sample 2):"}
{"Strand": "GCGTGTGA", "E-score": 0.365}
{"Strand": "CCCCCTGC", "E-score": 0.291}
